Measurements of several laboratories.
A part holds a random share of what one study measured.
Chain of UniProt P57058 (whole entry, looked up): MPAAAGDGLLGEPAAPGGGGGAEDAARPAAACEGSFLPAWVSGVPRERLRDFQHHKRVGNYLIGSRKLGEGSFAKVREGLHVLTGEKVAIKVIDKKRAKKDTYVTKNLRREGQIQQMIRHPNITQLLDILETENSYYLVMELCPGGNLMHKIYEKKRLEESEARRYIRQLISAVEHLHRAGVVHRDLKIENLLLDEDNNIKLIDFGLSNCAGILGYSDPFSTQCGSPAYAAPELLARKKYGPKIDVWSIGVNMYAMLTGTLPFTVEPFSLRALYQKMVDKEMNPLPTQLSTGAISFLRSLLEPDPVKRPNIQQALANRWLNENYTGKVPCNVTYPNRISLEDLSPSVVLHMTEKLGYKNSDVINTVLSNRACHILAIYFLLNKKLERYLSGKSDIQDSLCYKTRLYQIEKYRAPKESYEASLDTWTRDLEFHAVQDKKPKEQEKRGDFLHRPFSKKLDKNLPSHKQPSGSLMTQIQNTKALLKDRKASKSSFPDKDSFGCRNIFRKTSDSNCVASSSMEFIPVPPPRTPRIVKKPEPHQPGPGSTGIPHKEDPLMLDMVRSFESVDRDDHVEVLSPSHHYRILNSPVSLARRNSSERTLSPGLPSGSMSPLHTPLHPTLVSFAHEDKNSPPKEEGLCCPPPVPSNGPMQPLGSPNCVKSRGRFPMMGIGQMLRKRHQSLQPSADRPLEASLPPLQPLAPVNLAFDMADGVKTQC
Chain of UniProt P21127 (whole entry, looked up): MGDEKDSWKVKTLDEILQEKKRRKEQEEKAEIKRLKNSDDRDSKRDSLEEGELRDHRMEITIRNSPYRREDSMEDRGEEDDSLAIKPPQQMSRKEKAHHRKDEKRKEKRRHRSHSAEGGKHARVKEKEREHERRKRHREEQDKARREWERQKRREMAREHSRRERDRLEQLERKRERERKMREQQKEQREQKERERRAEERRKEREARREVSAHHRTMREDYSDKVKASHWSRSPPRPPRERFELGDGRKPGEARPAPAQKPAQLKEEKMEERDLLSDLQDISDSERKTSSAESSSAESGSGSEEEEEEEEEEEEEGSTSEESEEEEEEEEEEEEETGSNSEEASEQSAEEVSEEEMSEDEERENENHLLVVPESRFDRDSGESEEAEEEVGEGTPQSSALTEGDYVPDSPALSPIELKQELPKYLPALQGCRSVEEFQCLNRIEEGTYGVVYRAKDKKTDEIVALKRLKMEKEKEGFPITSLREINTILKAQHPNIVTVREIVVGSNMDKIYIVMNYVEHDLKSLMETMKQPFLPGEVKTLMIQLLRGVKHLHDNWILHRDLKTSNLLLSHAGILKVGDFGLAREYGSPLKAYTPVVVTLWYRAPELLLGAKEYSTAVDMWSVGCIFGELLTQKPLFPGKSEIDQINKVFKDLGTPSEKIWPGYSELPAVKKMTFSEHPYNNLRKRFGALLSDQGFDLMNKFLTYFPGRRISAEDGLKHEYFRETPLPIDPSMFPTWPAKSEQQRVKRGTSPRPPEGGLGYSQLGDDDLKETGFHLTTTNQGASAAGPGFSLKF
Chain of UniProt P00519 (whole entry, looked up): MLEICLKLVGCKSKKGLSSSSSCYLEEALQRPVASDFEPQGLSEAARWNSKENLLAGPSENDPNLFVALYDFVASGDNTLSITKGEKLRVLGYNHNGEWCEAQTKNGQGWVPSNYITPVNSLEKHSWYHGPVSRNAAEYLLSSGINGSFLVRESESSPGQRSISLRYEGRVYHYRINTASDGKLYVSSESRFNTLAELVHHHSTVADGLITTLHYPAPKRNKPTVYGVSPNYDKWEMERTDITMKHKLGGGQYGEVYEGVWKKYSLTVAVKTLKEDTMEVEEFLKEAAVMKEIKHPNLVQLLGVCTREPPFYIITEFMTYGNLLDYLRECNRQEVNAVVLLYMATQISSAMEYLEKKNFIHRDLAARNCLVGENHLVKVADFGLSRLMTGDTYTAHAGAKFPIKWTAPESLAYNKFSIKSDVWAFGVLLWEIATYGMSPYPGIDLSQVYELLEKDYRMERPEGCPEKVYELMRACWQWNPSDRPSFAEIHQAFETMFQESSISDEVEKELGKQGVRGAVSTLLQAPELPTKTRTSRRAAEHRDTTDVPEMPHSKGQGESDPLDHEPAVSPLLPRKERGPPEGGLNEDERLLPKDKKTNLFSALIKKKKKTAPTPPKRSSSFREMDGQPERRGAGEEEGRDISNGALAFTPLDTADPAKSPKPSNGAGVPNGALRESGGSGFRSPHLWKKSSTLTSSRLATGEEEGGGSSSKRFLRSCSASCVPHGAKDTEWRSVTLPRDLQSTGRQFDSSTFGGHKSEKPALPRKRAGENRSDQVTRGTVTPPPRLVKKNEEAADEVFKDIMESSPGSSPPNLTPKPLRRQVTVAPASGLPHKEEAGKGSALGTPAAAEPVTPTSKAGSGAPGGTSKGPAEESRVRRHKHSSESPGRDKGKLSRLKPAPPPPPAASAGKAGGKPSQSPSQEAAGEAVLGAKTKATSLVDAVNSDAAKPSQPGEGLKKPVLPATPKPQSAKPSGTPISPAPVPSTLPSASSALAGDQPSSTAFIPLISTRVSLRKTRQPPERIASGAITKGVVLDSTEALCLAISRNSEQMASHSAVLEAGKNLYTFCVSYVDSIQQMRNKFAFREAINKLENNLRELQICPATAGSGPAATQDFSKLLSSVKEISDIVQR
Chain of UniProt Q06187 (whole entry, looked up): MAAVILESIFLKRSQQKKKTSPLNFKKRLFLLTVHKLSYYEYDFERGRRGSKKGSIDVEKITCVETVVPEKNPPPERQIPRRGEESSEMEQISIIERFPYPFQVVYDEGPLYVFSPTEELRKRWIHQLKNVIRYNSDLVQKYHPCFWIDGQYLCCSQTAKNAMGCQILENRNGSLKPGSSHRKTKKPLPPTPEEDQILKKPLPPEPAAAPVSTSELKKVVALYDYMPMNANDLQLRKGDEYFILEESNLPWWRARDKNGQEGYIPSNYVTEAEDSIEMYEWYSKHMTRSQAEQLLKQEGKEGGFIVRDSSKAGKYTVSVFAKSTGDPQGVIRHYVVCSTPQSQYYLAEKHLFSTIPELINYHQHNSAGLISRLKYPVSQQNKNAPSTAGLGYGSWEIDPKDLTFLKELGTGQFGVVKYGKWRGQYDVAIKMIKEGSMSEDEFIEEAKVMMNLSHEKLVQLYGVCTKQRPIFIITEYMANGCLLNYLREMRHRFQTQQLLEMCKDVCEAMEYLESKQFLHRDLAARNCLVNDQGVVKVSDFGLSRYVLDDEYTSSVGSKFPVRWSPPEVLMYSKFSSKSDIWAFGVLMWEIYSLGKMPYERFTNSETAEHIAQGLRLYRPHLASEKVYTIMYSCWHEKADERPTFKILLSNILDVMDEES
Chain of UniProt Q9Y616 (whole entry, looked up): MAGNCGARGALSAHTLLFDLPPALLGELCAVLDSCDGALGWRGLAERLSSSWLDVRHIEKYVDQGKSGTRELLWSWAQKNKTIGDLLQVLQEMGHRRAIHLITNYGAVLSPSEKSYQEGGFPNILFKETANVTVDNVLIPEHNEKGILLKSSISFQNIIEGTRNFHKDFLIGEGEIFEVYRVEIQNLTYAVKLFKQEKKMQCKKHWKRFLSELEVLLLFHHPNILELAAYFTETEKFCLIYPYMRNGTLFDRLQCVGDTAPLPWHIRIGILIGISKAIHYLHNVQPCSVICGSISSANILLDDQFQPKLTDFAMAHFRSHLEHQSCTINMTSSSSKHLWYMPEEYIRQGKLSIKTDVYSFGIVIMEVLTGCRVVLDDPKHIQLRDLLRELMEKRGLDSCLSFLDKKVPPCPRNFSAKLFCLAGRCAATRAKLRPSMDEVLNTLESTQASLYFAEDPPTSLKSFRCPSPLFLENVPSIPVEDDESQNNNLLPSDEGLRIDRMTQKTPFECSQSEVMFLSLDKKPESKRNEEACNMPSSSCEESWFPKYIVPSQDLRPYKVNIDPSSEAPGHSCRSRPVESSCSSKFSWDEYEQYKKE

Block 1
Target: Serine/threonine-protein kinase PAK 2 (PAK2, Homo sapiens, UniProt Q13177)
Chain of UniProt Q13177 (whole entry, looked up): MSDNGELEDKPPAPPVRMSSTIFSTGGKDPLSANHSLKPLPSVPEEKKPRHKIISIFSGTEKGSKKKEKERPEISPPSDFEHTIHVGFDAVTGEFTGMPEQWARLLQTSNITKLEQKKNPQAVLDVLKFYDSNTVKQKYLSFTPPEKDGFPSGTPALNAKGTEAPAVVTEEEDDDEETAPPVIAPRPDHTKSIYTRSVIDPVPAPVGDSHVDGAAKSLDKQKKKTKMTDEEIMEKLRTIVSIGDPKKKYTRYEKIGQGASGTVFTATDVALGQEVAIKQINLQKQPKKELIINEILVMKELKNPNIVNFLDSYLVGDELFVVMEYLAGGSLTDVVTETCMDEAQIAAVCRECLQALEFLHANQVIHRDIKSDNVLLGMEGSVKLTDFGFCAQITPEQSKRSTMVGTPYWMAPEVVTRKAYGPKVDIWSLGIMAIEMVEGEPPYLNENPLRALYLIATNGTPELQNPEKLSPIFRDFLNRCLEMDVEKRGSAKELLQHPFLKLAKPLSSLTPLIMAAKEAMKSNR
Read-out: enzyme activity
Action: inhibitor
Concentration: 0.5 µM
Relative to: control
Quantity: remaining activity
COc1cc2ncnc(Nc3ccc(Oc4ccccc4)cc3)c2cc1OC: 78.7%
Cc1nc(-c2ccccc2)c(-c2ccncc2)o1: 82.3%
N#CC(C#N)=C(N)/C(C#N)=C/c1ccc(O)cc1: 86%
CO[C@H]1C[C@@H]2CC[C@@H](C)[C@@](O)(O2)C(=O)C(=O)N2CCCC[C@H]2C(=O)O[C@H]([C@H](C)C[C@@H]2CC[C@@H](O)[C@H](OC)C2)CC(=O)[C@H](C)/C=C(\C)[C@@H](O)[C@@H](OC)C(=O)[C@H](C)C[C@H](C)/C=C/C=C/C=C/1C: 101%
O=c1c2ccccc2[nH]c(=S)n1CCN1CCC(=C(c2ccc(F)cc2)c2ccc(F)cc2)CC1: 103%

Block 2
Target: Sal-like protein 4, full length isoform B (SALL4, Homo sapiens, UniProt Q9UJQ4-2, residues 1-616)
Method: universal PBM
Molecule type: double-stranded DNA, one strand shown
Matrix: in vitro
Concentration: not given
Setting: 8-mer, flanks averaged, mean of replicates
Direction: higher = stronger binding
Quantity: E-score
Target sequence (chain): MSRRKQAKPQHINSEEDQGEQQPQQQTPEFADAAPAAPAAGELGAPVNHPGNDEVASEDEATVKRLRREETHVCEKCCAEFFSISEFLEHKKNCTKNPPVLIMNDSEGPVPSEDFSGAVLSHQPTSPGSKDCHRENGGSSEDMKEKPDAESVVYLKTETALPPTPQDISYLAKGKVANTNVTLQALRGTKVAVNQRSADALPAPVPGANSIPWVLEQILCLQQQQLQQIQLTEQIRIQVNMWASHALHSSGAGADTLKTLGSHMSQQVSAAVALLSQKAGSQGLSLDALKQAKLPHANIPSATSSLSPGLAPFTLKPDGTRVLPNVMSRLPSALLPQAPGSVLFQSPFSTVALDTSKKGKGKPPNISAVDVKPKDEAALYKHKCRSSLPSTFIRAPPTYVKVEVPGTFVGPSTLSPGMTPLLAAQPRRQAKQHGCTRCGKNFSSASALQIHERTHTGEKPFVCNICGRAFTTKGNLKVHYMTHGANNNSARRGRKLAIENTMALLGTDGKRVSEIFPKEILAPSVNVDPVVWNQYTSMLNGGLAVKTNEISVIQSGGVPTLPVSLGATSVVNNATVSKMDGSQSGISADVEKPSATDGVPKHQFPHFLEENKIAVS
CCGATTCG: -0.0299
CGAATAGC: 0.0215
CGCATCCA: -0.191
ACTTGAGA: 0.0997
CCTTCTTA: 0.0304
CAGTCATC: -0.112
ACTAAAAT: 0.25
AAGCAAAT: 0.188

Block 3
SMILES: O=C(N[C@H]1CCCCC/C=C\C2C[C@@]2(C(=O)O)NC(=O)[C@@H]2C[C@@H](Oc3ccncc3)CN2C1=O)OC1CCCC1 (some centres unmarked)
Method: competition with immobilised ligand
Concentration: 1 µM
Quantity: remaining binding
EPHB3 (Homo sapiens, UniProt P54753); cell-free assay: 100%
PRKACB (Homo sapiens, UniProt P22694); binding: 100%
Tyrosine-protein kinase ABL1, non-phosphorylated (ABL1, Homo sapiens, UniProt P00519); binding: 85%
GRK1 (Homo sapiens, UniProt Q15835); binding: 100%
BTK (Homo sapiens, UniProt Q06187); binding: 100%
PNCK (Homo sapiens, UniProt Q6P2M8); cell-free assay: 99%
IRAK4 (Homo sapiens, UniProt Q9NWZ3); binding: 88%
MUSK (Homo sapiens, UniProt O15146); binding: 100%
SIK3 (Homo sapiens, UniProt Q9Y2K2); binding: 95%
IRAK3 (Homo sapiens, UniProt Q9Y616); binding: 72%
FLT3 (Homo sapiens, UniProt P36888); binding: 93%
HUNK (Homo sapiens, UniProt P57058); binding: 100%
PDGFRB (Homo sapiens, UniProt P09619); binding: 87%
CDK11B (Homo sapiens, UniProt P21127); cell-free assay: 100%

Block 4
Target: Centromere-binding protein 1, full length, N-terminal tag (CBF1, Saccharomyces cerevisiae, UniProt P17106, residues 1-351)
Chain of UniProt P17106 (whole entry, looked up): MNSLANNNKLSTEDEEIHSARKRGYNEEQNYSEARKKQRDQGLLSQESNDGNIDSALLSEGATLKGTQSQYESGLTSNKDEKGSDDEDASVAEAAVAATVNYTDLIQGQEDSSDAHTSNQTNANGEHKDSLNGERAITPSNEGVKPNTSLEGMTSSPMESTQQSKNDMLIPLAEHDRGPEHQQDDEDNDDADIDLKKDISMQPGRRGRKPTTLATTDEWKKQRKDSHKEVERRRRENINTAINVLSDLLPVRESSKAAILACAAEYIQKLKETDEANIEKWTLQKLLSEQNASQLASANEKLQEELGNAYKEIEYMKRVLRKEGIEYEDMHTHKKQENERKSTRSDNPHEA
Method: protein-binding microarray
Molecule type: double-stranded DNA, one strand shown
Matrix: in vitro
Concentration: 0.8 µM
Setting: whole 60-bp probe, no competitor
Direction: higher = stronger binding
Quantity: fluorescence intensity
TGTACGAAGCTATAAGGTCACGTTATAGTAGTTAGGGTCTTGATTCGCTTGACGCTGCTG: 3320 a.u.
GAACACTGCGCAGGTGACGGTAAAGAAAACAGGTAGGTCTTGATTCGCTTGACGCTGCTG: 1170 a.u.
CCTAACTACTATATTGTCGTGATATAGCTTCGTACAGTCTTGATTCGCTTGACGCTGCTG: 563 a.u.
GAAGTGGGATACTATCACGACAATGACAGCTGCTAGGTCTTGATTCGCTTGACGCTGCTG: 592 a.u.
CTACAAATGGACTTTAGCGTGACCGTGCTTACCTTCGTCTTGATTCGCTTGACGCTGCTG: 780 a.u.
CTAAAGATGTACAGGTGATTAATTACGTCTTTTTTCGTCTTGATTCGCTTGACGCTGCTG: 848 a.u.
CTATCTTGCCTTCATCACCATTATTGAATTACATTCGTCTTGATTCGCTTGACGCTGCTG: 557 a.u.
CTAGTTTATTGAGGTCATGAGGCTGGAAGAAAATTCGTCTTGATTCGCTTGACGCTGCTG: 918 a.u.

A few entries again (block 2):
CAGTCATC: -0.112
AAGCAAAT: 0.188
CCTTCTTA: 0.0304
CCGATTCG: -0.0299
